# Results from different studies.
# Each numbered part is a random draw from the data of one study; scales do not carry over between parts.
# Chain of UniProt P52564 (whole entry, looked up): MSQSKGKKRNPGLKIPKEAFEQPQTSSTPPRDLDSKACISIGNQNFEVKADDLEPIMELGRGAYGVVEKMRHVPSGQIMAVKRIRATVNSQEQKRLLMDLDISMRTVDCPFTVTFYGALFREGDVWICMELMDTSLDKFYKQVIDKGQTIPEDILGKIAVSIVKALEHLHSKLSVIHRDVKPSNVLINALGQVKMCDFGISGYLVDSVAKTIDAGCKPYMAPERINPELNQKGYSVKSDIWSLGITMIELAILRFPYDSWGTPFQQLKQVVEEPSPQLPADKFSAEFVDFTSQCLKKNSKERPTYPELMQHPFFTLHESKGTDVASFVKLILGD
# Chain of UniProt Q9NYY3 (whole entry, looked up): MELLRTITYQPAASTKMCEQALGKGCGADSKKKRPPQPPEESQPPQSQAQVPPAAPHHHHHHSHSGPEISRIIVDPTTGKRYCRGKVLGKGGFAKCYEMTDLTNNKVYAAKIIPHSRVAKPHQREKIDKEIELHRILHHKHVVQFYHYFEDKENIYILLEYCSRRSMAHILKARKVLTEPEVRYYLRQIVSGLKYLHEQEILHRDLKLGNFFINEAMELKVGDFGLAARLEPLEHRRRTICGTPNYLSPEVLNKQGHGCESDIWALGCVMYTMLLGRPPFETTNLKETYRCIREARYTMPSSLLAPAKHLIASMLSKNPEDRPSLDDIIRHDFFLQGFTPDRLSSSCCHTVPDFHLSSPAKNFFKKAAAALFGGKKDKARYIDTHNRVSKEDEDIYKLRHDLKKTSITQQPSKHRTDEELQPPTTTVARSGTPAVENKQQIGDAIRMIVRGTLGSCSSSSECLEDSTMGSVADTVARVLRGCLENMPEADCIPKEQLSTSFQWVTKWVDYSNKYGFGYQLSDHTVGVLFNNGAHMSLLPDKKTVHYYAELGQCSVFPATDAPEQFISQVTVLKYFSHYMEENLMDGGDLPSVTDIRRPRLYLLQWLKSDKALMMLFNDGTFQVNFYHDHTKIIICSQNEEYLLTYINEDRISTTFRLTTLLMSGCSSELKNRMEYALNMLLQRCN
# Chain of UniProt Q02779 (whole entry, looked up): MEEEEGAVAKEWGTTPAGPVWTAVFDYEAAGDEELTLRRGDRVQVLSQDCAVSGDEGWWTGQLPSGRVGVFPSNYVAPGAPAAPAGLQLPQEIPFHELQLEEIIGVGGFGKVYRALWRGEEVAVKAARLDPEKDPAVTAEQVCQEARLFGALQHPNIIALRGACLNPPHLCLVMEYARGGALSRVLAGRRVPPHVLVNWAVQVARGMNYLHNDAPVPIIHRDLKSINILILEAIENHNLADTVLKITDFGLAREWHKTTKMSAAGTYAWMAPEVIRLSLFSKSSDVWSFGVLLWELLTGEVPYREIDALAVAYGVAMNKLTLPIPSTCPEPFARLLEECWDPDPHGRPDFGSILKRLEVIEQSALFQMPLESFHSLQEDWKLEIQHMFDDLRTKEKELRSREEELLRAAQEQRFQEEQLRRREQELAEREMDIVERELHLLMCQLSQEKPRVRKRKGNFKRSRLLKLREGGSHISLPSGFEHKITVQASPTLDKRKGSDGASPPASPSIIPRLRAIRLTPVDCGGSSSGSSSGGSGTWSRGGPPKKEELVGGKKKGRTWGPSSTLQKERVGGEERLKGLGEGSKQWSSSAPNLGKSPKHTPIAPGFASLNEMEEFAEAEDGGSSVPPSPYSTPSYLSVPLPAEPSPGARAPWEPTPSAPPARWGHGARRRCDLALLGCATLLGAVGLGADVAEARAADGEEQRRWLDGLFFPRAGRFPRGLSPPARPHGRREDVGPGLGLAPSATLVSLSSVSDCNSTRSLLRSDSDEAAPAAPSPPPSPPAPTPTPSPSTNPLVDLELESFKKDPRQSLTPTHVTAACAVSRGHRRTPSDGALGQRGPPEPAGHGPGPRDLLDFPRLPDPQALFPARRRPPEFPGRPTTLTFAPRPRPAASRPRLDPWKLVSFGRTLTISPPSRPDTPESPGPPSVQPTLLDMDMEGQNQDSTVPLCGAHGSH
# Chain of UniProt Q5S007 (whole entry, looked up): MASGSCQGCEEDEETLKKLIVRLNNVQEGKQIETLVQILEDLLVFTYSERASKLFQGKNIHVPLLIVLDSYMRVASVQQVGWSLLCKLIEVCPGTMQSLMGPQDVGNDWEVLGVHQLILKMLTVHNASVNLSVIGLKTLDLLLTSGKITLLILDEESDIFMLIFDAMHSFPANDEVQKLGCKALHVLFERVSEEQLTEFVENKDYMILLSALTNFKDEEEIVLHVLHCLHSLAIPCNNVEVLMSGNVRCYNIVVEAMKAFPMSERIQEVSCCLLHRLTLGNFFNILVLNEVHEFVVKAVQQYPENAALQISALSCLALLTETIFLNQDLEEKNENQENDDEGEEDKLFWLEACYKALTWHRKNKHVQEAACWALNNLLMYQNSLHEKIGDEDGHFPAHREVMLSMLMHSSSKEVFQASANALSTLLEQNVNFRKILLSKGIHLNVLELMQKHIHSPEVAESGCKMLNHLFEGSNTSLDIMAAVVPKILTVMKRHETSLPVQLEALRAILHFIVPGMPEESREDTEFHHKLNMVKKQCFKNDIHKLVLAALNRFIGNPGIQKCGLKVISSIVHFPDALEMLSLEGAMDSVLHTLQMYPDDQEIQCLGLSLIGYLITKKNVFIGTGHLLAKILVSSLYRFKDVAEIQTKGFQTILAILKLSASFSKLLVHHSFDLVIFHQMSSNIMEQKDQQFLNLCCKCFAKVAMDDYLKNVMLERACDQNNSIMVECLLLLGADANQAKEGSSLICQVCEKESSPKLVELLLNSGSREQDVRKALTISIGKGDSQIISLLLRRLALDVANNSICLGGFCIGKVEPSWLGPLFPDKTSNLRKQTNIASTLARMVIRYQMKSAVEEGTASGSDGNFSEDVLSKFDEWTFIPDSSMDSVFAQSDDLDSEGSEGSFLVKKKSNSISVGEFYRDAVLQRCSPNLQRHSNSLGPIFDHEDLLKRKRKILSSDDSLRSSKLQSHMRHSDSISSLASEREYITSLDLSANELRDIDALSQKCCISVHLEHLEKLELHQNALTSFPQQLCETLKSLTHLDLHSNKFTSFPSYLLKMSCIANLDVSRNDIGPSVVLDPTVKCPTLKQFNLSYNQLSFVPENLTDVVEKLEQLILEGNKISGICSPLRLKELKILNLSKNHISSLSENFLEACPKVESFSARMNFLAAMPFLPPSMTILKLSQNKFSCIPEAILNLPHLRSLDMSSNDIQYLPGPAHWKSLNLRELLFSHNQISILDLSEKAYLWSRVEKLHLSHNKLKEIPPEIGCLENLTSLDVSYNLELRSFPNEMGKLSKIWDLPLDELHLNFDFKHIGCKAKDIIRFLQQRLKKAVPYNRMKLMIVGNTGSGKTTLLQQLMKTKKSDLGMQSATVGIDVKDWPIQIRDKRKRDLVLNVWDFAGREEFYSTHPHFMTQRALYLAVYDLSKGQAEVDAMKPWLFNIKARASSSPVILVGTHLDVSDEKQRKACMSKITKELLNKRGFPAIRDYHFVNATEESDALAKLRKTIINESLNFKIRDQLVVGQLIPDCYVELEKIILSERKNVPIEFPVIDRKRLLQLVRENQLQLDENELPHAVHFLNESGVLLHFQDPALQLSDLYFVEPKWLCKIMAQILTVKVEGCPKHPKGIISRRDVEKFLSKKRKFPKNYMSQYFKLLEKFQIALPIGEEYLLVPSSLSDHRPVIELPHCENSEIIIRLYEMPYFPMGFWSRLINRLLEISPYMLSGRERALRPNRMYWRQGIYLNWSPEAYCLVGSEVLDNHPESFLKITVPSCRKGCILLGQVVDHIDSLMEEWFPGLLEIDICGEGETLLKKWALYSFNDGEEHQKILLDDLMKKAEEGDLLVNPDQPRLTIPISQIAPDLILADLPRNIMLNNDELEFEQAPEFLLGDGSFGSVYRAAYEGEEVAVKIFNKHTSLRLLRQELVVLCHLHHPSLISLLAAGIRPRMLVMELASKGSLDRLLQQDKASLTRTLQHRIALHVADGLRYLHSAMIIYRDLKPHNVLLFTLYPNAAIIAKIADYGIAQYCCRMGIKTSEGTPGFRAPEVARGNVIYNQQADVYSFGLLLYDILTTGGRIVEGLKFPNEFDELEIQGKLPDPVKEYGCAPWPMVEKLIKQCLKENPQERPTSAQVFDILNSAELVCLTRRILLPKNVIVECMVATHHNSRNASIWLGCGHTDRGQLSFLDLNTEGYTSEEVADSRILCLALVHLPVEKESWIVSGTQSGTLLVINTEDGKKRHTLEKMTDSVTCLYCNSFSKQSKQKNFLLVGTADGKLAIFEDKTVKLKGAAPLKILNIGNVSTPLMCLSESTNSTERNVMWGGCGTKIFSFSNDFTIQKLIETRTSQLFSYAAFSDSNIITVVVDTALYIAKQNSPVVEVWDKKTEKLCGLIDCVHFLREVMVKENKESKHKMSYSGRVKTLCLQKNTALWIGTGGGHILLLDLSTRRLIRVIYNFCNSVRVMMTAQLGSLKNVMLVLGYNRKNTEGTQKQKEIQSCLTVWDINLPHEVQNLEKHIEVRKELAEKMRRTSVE
# Chain of UniProt P28221 (whole entry, looked up): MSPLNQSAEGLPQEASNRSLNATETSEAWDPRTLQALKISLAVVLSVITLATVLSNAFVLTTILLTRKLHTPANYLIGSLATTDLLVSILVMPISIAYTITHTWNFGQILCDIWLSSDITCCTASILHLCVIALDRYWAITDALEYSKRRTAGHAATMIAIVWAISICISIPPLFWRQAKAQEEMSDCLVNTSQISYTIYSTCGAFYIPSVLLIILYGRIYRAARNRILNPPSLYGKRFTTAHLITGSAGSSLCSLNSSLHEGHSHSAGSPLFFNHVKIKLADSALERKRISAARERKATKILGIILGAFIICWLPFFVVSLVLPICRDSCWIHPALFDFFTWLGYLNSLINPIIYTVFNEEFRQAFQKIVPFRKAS

# Set 1 — method: phase 2a trial; host: idiopathic pulmonary fibrosis patients
# Structure (SMILES): CC(C)n1cnc(-c2ccc(F)cc2)c1-c1ncc(C(=O)Nc2ccc(N3CCN(C)CC3)cc2)[nH]1
conditions,patients with arrhythmia [%]
"dose not given, adverse event grade 2, all dose arms pooled",0
"30 mg once daily, adverse event grade 4",0
"60 mg once daily, adverse event grade 4",0
"60 mg once daily, adverse event grade 1",0
"30 mg once daily, adverse event grade 5",0
"30 mg once daily, adverse event grade 2",0
"dose not given, adverse event grade 1, all dose arms pooled",0
"60 mg once daily, adverse event grade 3",0

# Set 2 — Structure (SMILES): O[C@]1(C(F)(F)F)CCCC[C@H]1Nc1ccc(F)cc1; effect on: binding; method: radioligand binding; concentration: 10 µM
target,inhibition [%]
"HTR1D (Homo sapiens, UniProt P28221)",-14.3
"HTR3A (Homo sapiens, UniProt P46098)",39
"HTR2B (Homo sapiens, UniProt P41595)",-14.9

# Set 3 — effect on: enzyme activity; action: inhibitor; concentration: 0.5 µM; reference: control
# Structure (SMILES): Nc1nc(Nc2ccc(S(N)(=O)=O)cc2)nn1C(=S)Nc1c(F)cccc1F
target,remaining activity [%]
"CSNK2A1 (Homo sapiens, UniProt P68400)",76.6
"WNK2 (Homo sapiens, UniProt Q9Y3S1)",97.9
"PRKG1 (Homo sapiens, UniProt Q13976)",91.3
"PLK2 (Homo sapiens, UniProt Q9NYY3)",88.5
"MAPK12 (Homo sapiens, UniProt P53778)",95.2
"BTK (Homo sapiens, UniProt Q06187)",84.1
"MAP4K2 (Homo sapiens, UniProt Q12851)",2.13
"MAP2K6 (Homo sapiens, UniProt P52564)",62.7
"MKNK2 (Homo sapiens, UniProt Q9HBH9)",17.2
"NEK4 (Homo sapiens, UniProt P51957)",60.5
"MAPK13 (Homo sapiens, UniProt O15264)",77.1
"AKT3 (Homo sapiens, UniProt Q9Y243)",96.4
"IRAK4 (Homo sapiens, UniProt Q9NWZ3)",19.6
"LYN (Homo sapiens, UniProt P07948)",27.2
"LRRK2 (Homo sapiens, UniProt Q5S007)",1.33
"KIT (Homo sapiens, UniProt P10721)",78.4
"EPHA5 (Homo sapiens, UniProt P54756)",56.7
"PRKCI (Homo sapiens, UniProt P41743)",78.9
"MAP3K10 (Homo sapiens, UniProt Q02779)",3
"Cyclin-dependent kinase 9, with cyclin T1 (CDK9, Homo sapiens, UniProt P50750)",15.6

# Set 4 — SMILES: O=C(Nc1ccccc1)Nc1cccc(Oc2ccc3nccn3n2)c1; concentration: 1 µM
target,test,conditions,scale,remaining binding [%]
"CSNK1G2 (Homo sapiens, UniProt P78368)",competitive binding panel,,reference: vehicle,100
"PRKCQ (Homo sapiens, UniProt Q04759)",competitive binding panel,,reference: vehicle,90
"DAPK3 (Homo sapiens, UniProt O43293)",competitive binding panel,,reference: vehicle,100
"IKBKB (Homo sapiens, UniProt O14920)",competitive binding,IKK-beta,,100
"BUB1 (Homo sapiens, UniProt O43683)",competitive binding panel,,reference: vehicle,100
"MAPK4 (Homo sapiens, UniProt P31152)","competitive binding panel, refers to: ERK4",,reference: vehicle,100
"MAPK7 (Homo sapiens, UniProt Q13164)","competitive binding panel, refers to: ERK5",,reference: vehicle,100
"ABL1 (Homo sapiens, UniProt P00519, Y253F)",competitive binding panel,,reference: vehicle,100
"ERBB2 (Homo sapiens, UniProt P04626)",competitive binding panel,,reference: vehicle,62
"MAP4K5 (Homo sapiens, UniProt Q9Y4K4)",competitive binding panel,,reference: vehicle,100
"MAP2K6 (Homo sapiens, UniProt P52564)","competitive binding panel, refers to: MEK6",,reference: vehicle,100
"STK26 (Homo sapiens, UniProt Q9P289)","competitive binding panel, refers to: MST4",,reference: vehicle,100
"FER (Homo sapiens, UniProt P16591)",competitive binding panel,,reference: vehicle,100
